Measured values collected from several papers.
Every numbered part comes from another study and shows a few of its results, in no order. Positions count from the first letter of the parent shown.

Sample 1
Target: Phosphate system positive regulatory protein PHO4, full length, GST-tagged (PHO4, Saccharomyces cerevisiae, UniProt P07270, residues 1-312)
Method: competition protein-binding microarray
Molecule type: double-stranded DNA, one strand shown
Sample: in vitro
Concentration: 2 µM
Setting: whole 60-bp probe, lowest competitor level
Added: Cbf1 competitor, 0.05 µM
Reading: higher = stronger binding
Constant ends, left off below: … GTCTTGATTCGCTTGACGCTGCTG
Construct (chain): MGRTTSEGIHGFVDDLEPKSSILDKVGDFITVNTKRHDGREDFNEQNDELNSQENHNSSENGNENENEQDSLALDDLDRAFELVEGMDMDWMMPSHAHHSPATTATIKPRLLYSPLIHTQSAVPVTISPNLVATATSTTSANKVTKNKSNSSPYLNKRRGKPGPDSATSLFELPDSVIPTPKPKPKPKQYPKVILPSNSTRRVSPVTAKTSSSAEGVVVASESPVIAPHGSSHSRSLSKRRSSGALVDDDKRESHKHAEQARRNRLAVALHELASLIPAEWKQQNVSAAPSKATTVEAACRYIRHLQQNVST
The fluorescence intensity of `CATATGAATTTGCTCTTCTAGTAACTTTGTACACAG` is reported as 3470 a.u.
`TTACTGGCGTAGACACCCGTGAAGTAGTGCAATACT` has a fluorescence intensity of 4840 a.u.
With `TGCGCAACAACTTGTGTCGTGGGTGTATGTCTAGAA` the fluorescence intensity was 6870 a.u.
`ATAATAAAGAATGGTGATGTGATGGTATTCAACTTG` has a fluorescence intensity of 5000 a.u.
The fluorescence intensity of `CTTTCCCGATCTTGGTATGTGGGTGTAGCACATTTG` is reported as 5440 a.u.
`CATACCCAACCTTTTCACGTGAGATAAGATATTTGT` gave a fluorescence intensity of 11700 a.u.
With `TGCTCCACCGGCCAACACGTGGAAGTCGCAATTATA` the fluorescence intensity was 15700 a.u.
`TTACTGACGTTATTGAACGTGAGATTATTTTGCTTG` has a fluorescence intensity of 6340 a.u.
For `CCGGGTGATGCTTGACGCGTTTTTGGAAACGATGAG`, the fluorescence intensity was 6250 a.u.
`TGCGCAACAACTTGTGCTGTGGGTGTATGTCTAGAA` has a fluorescence intensity of 5830 a.u.
`CGTCCTAGCGATTGAGTCGTGGGTGCCATGAGGAAG` gave a fluorescence intensity of 9460 a.u.
`GCTGCTGGCTAAAATAGTGTGACGAAACGTACATAG` gave a fluorescence intensity of 4330 a.u.
For `TGCGCAACAACTTGAAGCGTGGGTGTATGTCTAGAA`, the fluorescence intensity was 8860 a.u.
`TGCGCAACAACTTTTCACGTGGCCTTATGTCTAGAA` gave a fluorescence intensity of 13600 a.u.
`GGTCTTCTTGTTTTTCACCTGCTCGACAGCTCTTTG` gave a fluorescence intensity of 3960 a.u.
The fluorescence intensity of `GTCTTGTCTCATTGTGAGGTGGGTGTCCCCACTTCA` is reported as 5300 a.u.
With `AAAAGAATTATTTGTCATGTGATTGCCATCCTACTT` the fluorescence intensity was 6160 a.u.
With `TGCGCAACAACTTTTCACGTGACCTTATGTCTAGAA` the fluorescence intensity was 10200 a.u.
`CAACCGCATCGGCTCAACCTGATCTTGCAATTAGCA` has a fluorescence intensity of 2780 a.u.
The fluorescence intensity of `CTGTGTGACCTTGGACACATGGCTCAACCTCTGTGA` is reported as 9530 a.u.
For `AAATGGGATAACCGTCACGTGACTCGCACTAGGGGC`, the fluorescence intensity was 11100 a.u.
With `ACAGGCTTTTACCATCACCTGAGCAGCAGCAAGAAA` the fluorescence intensity was 4060 a.u.
`CGGGGTTAAGTTTGCTGGGTGGGTGGCTTGCAGCAG` gave a fluorescence intensity of 4500 a.u.
`TATCTAATCATTTTGCACGTCAAGATTCTCCTTAAC` gave a fluorescence intensity of 3910 a.u.
The fluorescence intensity of `ATGCTGCTAAAGGAACACGTGAGAAATTACATTCTC` is reported as 15500 a.u.

Sample 2
Target: RING finger protein unkempt homolog, zinc fingers 1-6, GST-SBP tag (UNK, Homo sapiens, UniProt Q9C0B0, residues 30-357)
UniProt Q9C0B0, sequence (30-357, looked up): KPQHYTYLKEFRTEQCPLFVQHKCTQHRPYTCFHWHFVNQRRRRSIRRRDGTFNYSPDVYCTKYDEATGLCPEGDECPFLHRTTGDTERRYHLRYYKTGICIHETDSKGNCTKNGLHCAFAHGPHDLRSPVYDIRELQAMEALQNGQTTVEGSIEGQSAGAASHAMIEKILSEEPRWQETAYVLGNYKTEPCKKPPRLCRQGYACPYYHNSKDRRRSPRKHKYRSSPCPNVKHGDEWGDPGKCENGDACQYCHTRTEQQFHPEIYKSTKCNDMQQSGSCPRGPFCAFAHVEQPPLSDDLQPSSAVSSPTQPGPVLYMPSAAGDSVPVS
Method: RNA Bind-n-Seq
Molecule type: RNA
Sample: in vitro
Concentration: not given
Setting: RNA with constant flanks, human and mouse sites, ends assumed
Baseline: input RNA pool
Reading: higher = stronger binding
Constant ends, left off below: GGGAGUUCUACAGUCCGACGAUC … CAACAGAGGAUUGAGCAUCA
`AUUGUUAUAAAGGACAUAGUUGGUAUACAUUUUCUGCUUCCAACUCAGCUUUGGUGCGAAUCGAGUGAAACUAGAUAUUGAAUAAGACUUGUCAAUAUCAAACGAUUUUUUUGCUGACUG` has a bound/input enrichment of 0.137 ratio.
The bound/input enrichment of `GCUCCAGCUGCCAACGCUGCGGAACCUAAGUCCGAUGGCGUUCUCGCCAUGACUUUUAAGAUUUUCCUUCUUUUUGCAGGACUUAUGGUUAAAGUGCCAGUGGGGCUGUAUUUUUCCUGU` is reported as 0.197 ratio.
For `GAUAAGAAAAGCUUGUUGGAGACCCGCUUGCAUGUCACUGGUAGAGACCUGAGGUGUCAAAUAGCUGAAACUUUCGGAUUUCAAGAAAAUUACAUCAAGAUCGUAAUAAAUAAGAAACAG`, the bound/input enrichment was 0.294 ratio.
The bound/input enrichment of `CCGGCGCGCGCGCGCGGGAUCCACGGGGGGCGGCGGCGUCCCCUCACCCGGCUCCUCCUGCGGCGCGGCGGGCUGUGCGGACAUGGCCGCGGCGGUGGCGGUGGCGGCCGCCUCUCGGCG` is reported as 1.32 ratio.
For `CCGCUUAAGGCUUCUUGUAGUACAAACAUCAAUAAUCAGGAAAGUCAGGAACUUUCUGAAUCCCUGAAAGAUAGUGCCACCAGCAAAACUUUUGAAAAGAAUGUUGUACGGCAGAAUAAA`, the bound/input enrichment was 0.185 ratio.
`GUCAGAUUUGAAAAUGCAGAUUUAAAUGAUACAUCAAGAAAUCUGGAAUUUCAUGAAAUACAUAGUACUGGGAAUGAACCGCCUUUGUUGAUUAUGAUUGGCUACAGUGAUGGAAUGCAG` gave a bound/input enrichment of 0.638 ratio.
`UGGAAGCGACUGUGUCAGUACCACUUUGCUGAGCAGCAGUUUUGUAGACAUUUGAUCCUUUCAGAAAAAGGUCAUAUCGAGUGGAAGCUGAUGUAUUUCACGCUUCAGAAGUAUUACCCG` gave a bound/input enrichment of 0.122 ratio.
`AGAGACAUGCUUCGACGAAUUAAGGAAGAUGAAGAUGAUAAAACAGUUUUGGAUCUUGCUGUGGUUUUGUUUGAAACAGCAACGCUUCGGUCAGGGUAUCUUUUACCAGACACUAAAGCA` has a bound/input enrichment of 0.223 ratio.

Sample 3
Target: Ras GTPase-activating protein-binding protein 1, RRM domain (G3BP1, Homo sapiens, UniProt Q13283)
UniProt Q13283, sequence (whole entry, looked up): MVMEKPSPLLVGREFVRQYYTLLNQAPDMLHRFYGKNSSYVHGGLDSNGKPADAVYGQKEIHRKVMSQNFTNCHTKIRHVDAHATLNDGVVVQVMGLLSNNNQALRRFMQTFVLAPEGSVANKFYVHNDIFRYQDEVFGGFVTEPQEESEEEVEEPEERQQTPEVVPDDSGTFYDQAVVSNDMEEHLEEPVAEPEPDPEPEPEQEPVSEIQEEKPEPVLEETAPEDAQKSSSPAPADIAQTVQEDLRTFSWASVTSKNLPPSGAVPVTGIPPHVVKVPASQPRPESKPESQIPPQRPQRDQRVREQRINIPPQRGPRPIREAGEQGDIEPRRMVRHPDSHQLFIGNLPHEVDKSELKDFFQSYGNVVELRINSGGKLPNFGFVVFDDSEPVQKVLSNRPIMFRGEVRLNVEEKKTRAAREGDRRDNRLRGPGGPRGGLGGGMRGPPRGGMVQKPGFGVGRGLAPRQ
Method: RNA Bind-n-Seq
Molecule type: RNA
Sample: in vitro
Concentration: 1 µM
Setting: whole 134-nt RNA, ends assumed
Added: 150 mM KCl
Baseline: input library
Reading: higher = stronger binding
Constant ends, left off below: GGGAGUUCUACAGUCCGACGAUC … UGGAAUUCUCGGGUGUCAAGG
For `CAAGUCCUGUGCUACACAUCGUAUGUACCGAAUCGGGGUGGGGUGGGGUUUGGGGAAAGUAUUAUGUUACGCCGUUCGGAUCUGCACUUC`, the log2 enrichment was 1.22.
The log2 enrichment of `CACAGACAACACGCACCCACAGAGACACAGAGGGAAGGGGUUGGGAUGGGGACAGGGUGCACAGCAGGGCGGGGUAGGACCCCAGCCCCU` is reported as -0.011.
The log2 enrichment of `UCCUGUGCUACACAUCGUAUGUACCGAAUCGGGGAAAAAGGGGUUUUUUUGGGGUGGGGAAAGUAUUAUGUUACGCCGUUCGGAUCUGCA` is reported as 0.703.
`ACCAUGCAGGUGGCCAUCUUUGGGAAGUGGGGCAAGGGGGGGAUAGGGAGGGGGGUAACACUUUGGGAACAGGUGGUCCCAGGUCGUUUC` gave a log2 enrichment of -0.504.
With `ACCAUGCAGGUGGGCAUCUUUGGGAAGUGGGGCAAGGGGGGGAUAGGGAGCGGGGUAACACUUUGGGAACAGGUGGUCCCAGGUCGUUUC` the log2 enrichment was 0.996.
`AAGUCCUGUGCUACACAUCGUAUGUACCGAAUCGGAAAAAAAGGUUUUUUUGGUGGAAAGUAUUAUGUUACGCCGUUCGGAUCUGCACUU` has a log2 enrichment of -0.332.
For `CCUGUGCUACACAUCGUAUGUACCGAAUCGGGUUUUUUUGGGAAAAAAAGGGAAAAAGGGAAAGUAUUAUGUUACGCCGUUCGGAUCUGC`, the log2 enrichment was -0.408.
`UGGCCCUGGUGGCAUGCGGGGAGGAAGAGGUGGCAUCAUGGAUCGUGGUGGUCCCGGUGGAAUGUUCAGAGGUGGCCGUGGUGGAGACAG` has a log2 enrichment of 0.961.
With `ACCAUGCAGGUGGGCAUCUUUGGGAAGUGGGGCAAGGGGGGGAUAGGGAGGGGGGCAACACUUUGGGAACAGGUGGUCCCAGGUCGUUUC` the log2 enrichment was -0.154.
`UGGGAGGUGGAUUUUGUUUAUUUUUUUAGCUCAUUUCCAGGGGUGGGAAUUUUUUUUUAUUAUGUGUCAUGAAUAAAGUUGUUUUUGAAA` gave a log2 enrichment of 1.77.
For `UCUGAGGUCACCAAGCCUCCUCCUUGCUUGGAGAACUCCUCGCCUCCCUCCAGGAUUCCGGAGCCUGAAUCCCCAGCGAAGCCAAACGUC`, the log2 enrichment was -0.364.
`AAGUCCUGUGCUACACAUCGUAUGUACCGAAUCGGAAAAAGGUUUUUUUGGUUUGGAAAGUAUUAUGUUACGCCGUUCGGAUCUGCACUU` has a log2 enrichment of -0.521.
With `AGUCCUGUGCUACACAUCGUAUGUACCGAAUCAAACCCAAACCCCCCCAAACCCAAAAAAGUAUUAUGUUACGCCGUUCGGAUCUGCACU` the log2 enrichment was -0.273.
For `CAAGUCCUGUGCUACACAUCGUAUGUACCGAAUCGGGGCCCGGGGCCCGGCCCGGAAAGUAUUAUGUUACGCCGUUCGGAUCUGCACUUC`, the log2 enrichment was -1.02.

Sample 4
Target: Histone acetyltransferase KAT6A, winged helix 2, GST fusion (KAT6A, Homo sapiens, UniProt Q92794, residues 85-181)
Method: protein binding microarray
Molecule type: double-stranded DNA, one strand shown
Sample: in vitro
Concentration: not given
Setting: 8-mer, flanks averaged, mean of 2 arrays, mostly near background
Baseline: not given
Reading: higher = stronger binding
Construct (chain): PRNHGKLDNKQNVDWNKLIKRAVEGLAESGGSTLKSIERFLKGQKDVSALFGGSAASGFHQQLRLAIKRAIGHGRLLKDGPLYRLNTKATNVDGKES
With `CCCTAAGC` the E-score was -0.0831.
For `GCTTGCAA`, the E-score was 0.0789.
The E-score of `ATGGGTCA` is reported as -0.0818.
With `AAAACCCG` the E-score was -0.0278.
`GCCGAGCA` gave an E-score of 0.202.
`CCAGTTTA` gave an E-score of -0.0261.
`ACATGATA` has an E-score of 0.016.
For `GTGTCCAA`, the E-score was 0.135.
`ACGCTGTG` has an E-score of 0.162.
`AAAATCTG` gave an E-score of 0.133.
`ATAAGTCA` gave an E-score of -0.134.
`CACCTGAG` gave an E-score of -0.0216.
For `AGTTGGAT`, the E-score was -0.0653.
The E-score of `AGCTGAAC` is reported as -0.0395.
`CCCTTTCA` has an E-score of -0.0779.
The E-score of `GAGCAACC` is reported as 0.0862.

Sample 5
Target: ABI1, truncated, D143A, DHFR fusion (Arabidopsis thaliana)
Method: DHFR PCA, deep sequencing
Sample: yeast
Setting: methotrexate growth selection, single substitutions
Added: (+)-ABA 0.11 µM
Baseline: wild-type fitted maximum
Reading: higher = stronger binding
Parent: PYL1, truncated, DHFR fusion (Arabidopsis thaliana); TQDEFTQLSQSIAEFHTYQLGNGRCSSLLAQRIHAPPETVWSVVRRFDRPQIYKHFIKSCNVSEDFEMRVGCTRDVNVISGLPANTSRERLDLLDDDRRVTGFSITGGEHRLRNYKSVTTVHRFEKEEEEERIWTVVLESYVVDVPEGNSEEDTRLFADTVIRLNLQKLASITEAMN
Under “relative binding score”, `G108N` is recorded as -0.764%.
`C60P`: “relative binding score” -2.17%.
`F157A` — result for “relative binding score”: 4.38%.
`E130W`: “relative binding score” 2.28%.
For `S27A`, “relative binding score” read 6.91%.
Under “relative binding score”, `L164K` is recorded as 3.54%.
`R98L` — result for “relative binding score”: 12.3%.
`V161T`: “relative binding score” 14.2%.
Under “relative binding score”, `F103I` is recorded as -2.08%.
Under “relative binding score”, `V76K` is recorded as -5.04%.
`T6C` — result for “relative binding score”: 27.4%.
Under “relative binding score”, `V137T` is recorded as -2.5%.
`M68C`: “relative binding score” 11.6%.

Other studies, line by line
Molecule type: peptide
Reading: direction not given
`PPAKRRLELGESG`: “binding enrichment score” 0.666 (human cyclin B1; peptide binding, yeast competitive growth sequencing; Saccharomyces cerevisiae, cyclin B1-Cln2 fusion; concentration not given, RxL motif peptides).
`SNARRSLNFGGST` — result for “Cln2-subtracted enrichment score”: 0.332 (human cyclin D2; cyclin docking binding, deep mutational scanning; yeast cyclin D2-Cln2 system).

A few entries again (sample 4):
With `AAAACCCG` the E-score was -0.0278.
`GCCGAGCA` gave an E-score of 0.202.
`CCAGTTTA` gave an E-score of -0.0261.
`ACATGATA` has an E-score of 0.016.
